# Assay results from different studies.
# Lines come from different studies, so protocols differ. Numbers after ± are the reported error.
SMILES,cell line,assay,conditions,scale,measurement,value
CCCCc1ccc(C(=O)N[C@@H](CO)C(=O)N[C@H](C(=O)N2CCC[C@H]2C(=O)N[C@@H](CC(N)=O)C(=O)NCC(=O)N[C@@H](CC(C)C)C(=O)O)[C@@H](C)OP(=O)(O)O)cc1,"HeLa, QQ transfected",,"30 µM, 24 h",,apoptotic cells,55.5%
CC(=O)N1CCC[C@H]1C(=O)N[C@@H](CC/C=C/C(=O)N(C)C)C(=O)N[C@@H](CCNC(=O)CCCCCN1C(=CC=CC=CC2=[N+](C)c3ccc(S(=O)(=O)[O-])cc3C2(C)C)C(C)(C)c2cc(S(=O)(=O)O)ccc21)C(=O)N1CCC[C@H]1C(=O)N[C@@H](Cc1ccccc1)C(N)=O,NRK cells,measured: EEA-1,"90 min, with: α2-macroglobulin",,Pearson colocalization coefficient,0.01
COc1cc(CNC(=O)C[C@H](C)CCC=C(C)C)ccc1OCc1cn(-c2ccc(F)cc2)nn1,NCI-H522,SRB,"10 µM, 48 h",,growth percent,66.4%
O=C(N1CCCC1)n1cc(-c2ccc(-c3ccccc3)cc2)nn1,mouse T-cells,"N-terminal labeled proteins, N-terminal enrichment proteomics, measured: OXSR1","1 nM, 6 h",relative to: DMSO,SILAC ratio,1.09 ± 0.11
O=Cc1c(O)ccc2ccccc12,HUVEC,"RNA sequencing, measured: CD34","75 µM, 24 h",relative to: DMSO,log2 fold change,-3.76
COc1ccc([C@@H]2CC(=O)c3c(O)cc(O[C@@H]4O[C@H](CO[C@@H]5O[C@@H](C)[C@H](O)[C@@H](O)[C@H]5O)[C@@H](O[C@H]5O[C@H](CO)[C@@H](O)[C@H](O)[C@H]5O)[C@H](O)[C@H]4O)cc3O2)cc1O,A549,trypan blue exclusion,"150 µg/mL, 72 h",,cell count,10400 ± 702
CCNc1ccc(-c2nc3ccccc3n3cccc23)cc1,HEK293 DR-GFP reporter,homologous recombination,concentration not given,,inhibition,~50%
C=C[C@H](OC(C)=O)c1ccc(OC(C)=O)cc1,MDA-MB-231,"cell growth or viability, MTT",,,IC20,2000 nM
COC1CN([C@H]2CC[C@H]([C@@]3(C)Oc4c(Cl)cc(C(=O)NCc5c(SC)cc(C)[nH]c5=O)c(C)c4O3)CC2)C1,BFTC-905,"cell growth or viability, ATP luminescence",12 days,,GI50,> 1000 nM
CN(CCOCCOCCOCCNc1cccc2c1C(=O)N(C1CCC(=O)NC1=O)C2=O)CC[C@H](CSc1ccccc1)Nc1ccc(S(=O)(=O)NC(=O)c2ccc(N3CCN(CC4=C(c5ccc(Cl)cc5)CCC(C)(C)C4)CC3)cc2)cc1S(=O)(=O)C(F)(F)F (stereo partly drawn),"MOLT-4 cells, human platelets",MTS,,relative to: MOLT-4 over platelets,selectivity ratio,112 fold
CC(=O)c1c(C)c2cnc(Nc3ccc(N4CCNCC4)cn3)nc2n(C2CCCC2)c1=O,recombinant CHO cell line,PI flow cytometry,concentration not given,,G0/G1 arrest completeness,> 96%
Cc1nc(C)c(C=[N+]([O-])C(C)(C)C)nc1C,primary rat midbrain neurons,"Western blot, measured: SIRT1","30 µM, with: 20 µM MPP+",,increase in protein level,47%

# Some of these lines once more:
SMILES,cell line,assay,conditions,scale,measurement,value
C=C[C@H](OC(C)=O)c1ccc(OC(C)=O)cc1,MDA-MB-231,"cell growth or viability, MTT",,,IC20,2000 nM
